Results gathered from unrelated publications.
Chain of UniProt Q13418 (whole entry, looked up): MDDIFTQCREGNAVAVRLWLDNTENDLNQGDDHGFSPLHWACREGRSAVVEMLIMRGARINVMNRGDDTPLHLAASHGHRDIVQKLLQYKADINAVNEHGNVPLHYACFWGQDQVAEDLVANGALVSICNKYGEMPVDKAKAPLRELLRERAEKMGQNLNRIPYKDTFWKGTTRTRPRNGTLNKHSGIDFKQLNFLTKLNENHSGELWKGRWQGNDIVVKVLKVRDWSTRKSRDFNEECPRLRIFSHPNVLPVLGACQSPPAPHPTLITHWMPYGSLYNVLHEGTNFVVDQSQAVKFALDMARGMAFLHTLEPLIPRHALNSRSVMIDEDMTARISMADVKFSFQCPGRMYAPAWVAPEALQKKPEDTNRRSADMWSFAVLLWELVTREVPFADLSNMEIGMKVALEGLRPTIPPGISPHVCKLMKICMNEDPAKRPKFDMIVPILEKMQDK

`COc1cc2c(cc1OCC1CC1)NC(=O)C21CCN(c2cc(NC3CC3)ncn2)CC1` gave a maximum response of -10.1% (Vero-E6; CellTiter-Glo ATP; 72 h, retest 8-point duplicates; reference: DMSO 0%, hyamine -100%, more negative, more toxic).
For `O=C(Nc1ccccc1)C1CCN(C(=O)Oc2cccnc2)CC1`, “change in Happy-Sad score” read -15 (Bond-Lader VAS; healthy women; oral, 60 mg; reference: pre-dose baseline, direction not given).
The maximum response of `CCN(CC)CCCNC(=O)c1ccc(-c2nc(CN3CCc4ccccc43)c(C)o2)cc1` is reported as -0.173% (Vero-E6; CellTiter-Glo ATP; 72 h, retest 8-point duplicates; reference: DMSO 0%, hyamine -100%, more negative, more toxic).
For `O=C(c1ccc(F)c(F)c1Nc1ccc(I)cc1F)N1CC(O)([C@@H]2CCCCN2)C1`, “fatal adverse events” read 0% (patients aged sample A to sample B years; oral, dose not given).
`C[C@]1(CO)Cc2ncn(-c3ccc(C#N)c(Cl)c3)c2C(=O)O1` gave a Tmax delay of 1 h (healthy subjects; oral, 10 mg, high-fat breakfast; reference: fasted).
`CC(=O)c1c(C)c2cnc(Nc3ccc(C4CCN(CCS(C)(=O)=O)CC4)cn3)nc2n(C2CCCC2)c1=O` — result for “patients with ALT increased”: 21.1% (HR+/HER2- advanced breast cancer patients; oral, dose not given, all grades, dose escalation, sample B patients).
Under “patients with malaise”, `COc1ncnn2ccc(-c3cnc4nc(C)n(Cc5nnc([C@@H](C)F)o5)c4c3)c12` is recorded as 0% (human; oral, dose not given, grade 5).
The reduction potential of `O=C(Oc1ccc(Br)cc1)[c-]1cccc1.[Fe+2].c1cc[cH-]c1` is reported as 484 mV (cyclic voltammetry; methanol/DMEM 1:1 with TBAPF6; concentration not given, Pt disk electrode, Ag/AgCl reference, with: scan rate 100 mV/s).
The breathing score of `CC(C)C[C@H](NC(=O)[C@H](CCCCN)NC(=O)OCC1c2ccccc2-c2ccccc21)C(=O)N[C@H](C(=O)N[C@@H](Cc1ccccc1)C(=O)N[C@@H](Cc1ccccc1)C(=O)N[C@@H](CCCCN)C(=O)NCC(=O)N[C@@H](Cc1ccccc1)C(=O)N[C@@H](C)C(=O)N[C@@H](Cc1c[nH]c2ccccc12)C(=O)N[C@@H](CC(N)=O)C(=O)N[C@H](C(=O)N[C@H]1CSSC[C@@H](C(=O)N[C@@H](Cc2c[nH]cn2)C(=O)N[C@@H](CCCNC(=N)N)C(=O)N[C@@H](CCCNC(=N)N)C(=O)N[C@@H](C)C(=O)N[C@@H](CC(N)=O)C(N)=O)NC(=O)[C@H](C(C)C)NC(=O)[C@H](CCCNC(=N)N)NC(=O)[C@H](C(C)C)NC(=O)CNC(=O)[C@H](CC(N)=O)NC(=O)[C@H](CCCNC(=N)N)NC(=O)[C@H](Cc2ccc(O)cc2)NC(=O)[C@H](C(C)C)NC1=O)C(C)C)C(C)C` is reported as 0 (ICR mouse; ip, 5 mg/kg; direction not given).
With `CCCCCCCCCCCCCCCC(=O)N[C@@H](CCC(=O)NCCCC[C@H](NC(=O)[C@H](CC(=O)O)NC(=O)[C@H](CO)NC(=O)[C@@H](NC(=O)[C@H](Cc1ccccc1)NC(=O)[C@@H](NC(=O)CNC(=O)[C@H](CCC(N)=O)NC(=O)[C@H](CO)NC(=O)[C@@H](N)Cc1c[nH]cn1)[C@@H](C)O)[C@@H](C)O)C(=O)N[C@@H](CO)C(=O)N[C@@H](CCC(=O)O)C(=O)N[C@@H](Cc1ccc(O)cc1)C(=O)N[C@@H](CC(C)C)C(=O)N[C@@H](CC(=O)O)C(=O)N[C@@H](CO)C(=O)N[C@@H](CCC(=O)O)C(=O)N[C@@H](CCCNC(=N)N)C(=O)N[C@@H](C)C(=O)N[C@@H](CCCNC(=N)N)C(=O)N[C@@H](CC(=O)O)C(=O)N[C@@H](Cc1ccccc1)C(=O)N[C@H](C(=O)N[C@@H](C)C(=O)N[C@@H](Cc1c[nH]c2ccccc12)C(=O)N[C@@H](CC(C)C)C(=O)N[C@@H](CCC(=O)O)C(=O)N[C@@H](C)C(=O)NCC(=O)NCC(=O)O)C(C)C)C(=O)O` the atrial fibrillation was 9.1% (human, CrCl ≥30 to <45 mL/min; sc, 100 µg single dose).
With `COc1cc2c(Oc3ccc4[nH]c(C)cc4c3F)ccnc2cc1OCC1(N)CC1` the Thrombocytopenia incidence was 50% (paediatric recurrent refractory sarcoma; 10 mg).
`CN1CC[C@@H](c2c(O)cc(O)c3c(=O)cc(-c4ccc(C(F)(F)F)cc4Cl)oc23)[C@@H]1CO` — result for “patients with adverse event”: 0% (refers to: febrile neutropenia; AML; oral, 100 mg, grade 3 to 4, intermittent dosing).
For `C[C@H]1CN(c2n[nH]c3nc(N[C@H]4CC[C@H](NS(=O)(=O)CCC(F)(F)F)CC4)ncc23)CCO1`, the relative abundance was 1.05 (Scaffold protein ILK (ILK, Homo sapiens, UniProt Q13418); inhibitor, Kinobeads competition profiling; 0.16 µM; reference: vehicle).
For `Cc1cc(C)c(CNC(=O)c2cc(Cl)c3c(c2C)O[C@@](C)([C@H]2CC[C@H](N(C)C)CC2)O3)c(=O)[nH]1`, “incidence of pleural effusion” read 0% (relapsed/refractory NHL patients; dose not given, trial, safety set, treatment-related TEAE grade 5).
For `CO[C@H]1C[C@@H]2CC[C@@H](C)[C@@](O)(O2)C(=O)C(=O)N2CCCC[C@H]2C(=O)O[C@H]([C@H](C)C[C@@H]2CC[C@@H](OC(=O)NCCOCCOCCOCCOCCOCCOCCOCCOCCC(=O)N3CCc4cc(Cn5nc(-c6ccc7oc(N)nc7c6)c6c(N)ncnc65)ccc4C3)[C@H](OC)C2)C[C@@H](O)[C@H](C)/C=C(\C)[C@@H](O)[C@@H](OC)C(=O)[C@H](C)C[C@H](C)/C=C/C=C/C=C/1C`, “incidence of nausea TEAE” read 0% (patients with advanced solid tumours; intravenous, 10 mg weekly, grade ≥3).

For quick reference, copied from above:
For `C[C@H]1CN(c2n[nH]c3nc(N[C@H]4CC[C@H](NS(=O)(=O)CCC(F)(F)F)CC4)ncc23)CCO1`, the relative abundance was 1.05 (Scaffold protein ILK (ILK, Homo sapiens, UniProt Q13418); inhibitor, Kinobeads competition profiling; 0.16 µM; reference: vehicle).
For `Cc1cc(C)c(CNC(=O)c2cc(Cl)c3c(c2C)O[C@@](C)([C@H]2CC[C@H](N(C)C)CC2)O3)c(=O)[nH]1`, “incidence of pleural effusion” read 0% (relapsed/refractory NHL patients; dose not given, trial, safety set, treatment-related TEAE grade 5).
